Assay results of several laboratories.
A part holds a random share of what one study measured. Substitutions count along the parent as printed.
Chain of UniProt O15294 (whole entry, looked up): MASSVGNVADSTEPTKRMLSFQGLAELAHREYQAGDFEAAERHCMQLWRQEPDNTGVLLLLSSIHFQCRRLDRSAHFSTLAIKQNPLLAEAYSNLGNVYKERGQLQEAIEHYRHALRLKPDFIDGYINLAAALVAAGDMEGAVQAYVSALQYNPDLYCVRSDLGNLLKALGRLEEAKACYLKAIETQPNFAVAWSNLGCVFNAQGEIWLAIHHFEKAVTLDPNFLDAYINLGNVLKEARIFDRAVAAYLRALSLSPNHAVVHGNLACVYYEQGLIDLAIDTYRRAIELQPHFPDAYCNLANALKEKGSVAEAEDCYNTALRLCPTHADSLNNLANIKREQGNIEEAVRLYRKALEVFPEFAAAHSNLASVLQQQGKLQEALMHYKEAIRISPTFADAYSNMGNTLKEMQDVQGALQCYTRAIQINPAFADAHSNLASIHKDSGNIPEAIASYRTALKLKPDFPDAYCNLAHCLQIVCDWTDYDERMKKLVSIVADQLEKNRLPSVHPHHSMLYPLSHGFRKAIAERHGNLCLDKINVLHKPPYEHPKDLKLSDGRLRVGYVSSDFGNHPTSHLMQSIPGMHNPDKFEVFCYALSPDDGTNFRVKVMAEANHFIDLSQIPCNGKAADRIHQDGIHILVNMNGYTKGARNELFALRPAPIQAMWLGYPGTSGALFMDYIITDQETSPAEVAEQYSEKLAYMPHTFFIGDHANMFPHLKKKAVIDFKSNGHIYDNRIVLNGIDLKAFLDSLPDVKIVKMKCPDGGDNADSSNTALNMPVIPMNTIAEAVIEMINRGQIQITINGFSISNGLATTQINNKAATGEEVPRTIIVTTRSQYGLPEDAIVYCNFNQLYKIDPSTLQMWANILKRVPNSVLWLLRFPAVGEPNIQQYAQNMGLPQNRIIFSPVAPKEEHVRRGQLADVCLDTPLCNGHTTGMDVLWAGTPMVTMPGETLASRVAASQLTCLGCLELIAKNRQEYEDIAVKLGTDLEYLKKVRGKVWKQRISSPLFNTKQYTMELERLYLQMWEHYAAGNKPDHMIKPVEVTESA

Block 1
Target: CRIPT, C-terminal peptide
Technique: DHFR complementation, deep sequencing
Sample: yeast
Notes: single substitutions, model-inferred values
Baseline: wild type
Direction: higher = weaker binding
Parent: ERBIN, PDZ domain 1 (human); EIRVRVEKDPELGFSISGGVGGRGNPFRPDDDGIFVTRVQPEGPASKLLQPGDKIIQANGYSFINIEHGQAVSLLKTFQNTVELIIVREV; partner TKNYKQTSV
| Substitution | binding free energy change |
| --- | --- |
| I56V | -0.0264 kcal/mol |
| E7P | 0.209 kcal/mol |
| R38V | -0.0216 kcal/mol |
| L75G | 2.08 kcal/mol |
| Q57C | 0.00557 kcal/mol |
| I2M | -0.024 kcal/mol |
| A71V | 0.601 kcal/mol |
| T81N | 0.194 kcal/mol |

Block 2
Target: Ras GTPase-activating protein-binding protein 1, full length (G3BP1, Homo sapiens, UniProt Q13283)
Chain of UniProt Q13283 (whole entry, looked up): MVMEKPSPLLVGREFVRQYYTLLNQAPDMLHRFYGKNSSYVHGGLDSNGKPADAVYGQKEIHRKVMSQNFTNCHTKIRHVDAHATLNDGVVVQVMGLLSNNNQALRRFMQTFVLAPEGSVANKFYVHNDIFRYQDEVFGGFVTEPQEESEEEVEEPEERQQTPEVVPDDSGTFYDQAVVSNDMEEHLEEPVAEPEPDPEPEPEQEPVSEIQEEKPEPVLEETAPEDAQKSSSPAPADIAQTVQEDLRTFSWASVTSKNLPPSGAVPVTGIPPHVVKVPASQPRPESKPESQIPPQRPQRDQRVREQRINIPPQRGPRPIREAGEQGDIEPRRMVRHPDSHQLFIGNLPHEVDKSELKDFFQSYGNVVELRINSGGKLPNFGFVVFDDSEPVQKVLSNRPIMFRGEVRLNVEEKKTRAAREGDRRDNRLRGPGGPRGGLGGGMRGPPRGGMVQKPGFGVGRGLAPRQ
Technique: RNA Bind-n-Seq
Molecule type: RNA
Sample: in vitro
Concentration: 200 nM
Notes: whole 134-nt RNA, ends assumed
Together with: 150 mM KCl
Baseline: input library
Direction: higher = stronger binding
Shared flanks, not repeated: GGGAGUUCUACAGUCCGACGAUC … UGGAAUUCUCGGGUGUCAAGG
| Sequence | log2 enrichment |
| --- | --- |
| UAACUUUAGAGGAGGAUCUGAUGGAUAUGGCAGUGGACGUGGAUUUGGGGAUGGCUAUAAUGGGUAUGGAAGAGGACCUGGAGGUGGCAA | 0.183 |
| UGGGAGGUGGAUUUUGUUUAUUUUUUUAGCUCAUUUCCAGGGGUGGGAAUUUUUUUUUAAUAUGUGUCAUGAAUAAAGUUGUGUUUGAAA | 0.39 |
| UAACUUUAGAGGAGGAUCUGAUGGAUAUGGCAGUGGACGUGGAUUUGGGGAUGGCUAUAAUGGGUAUGGAGCAGGACCUGGAGGUGGCAA | 0.196 |
| UGGCCCUGGUGGCAUGCGGGGAGGAAGAGGUGGCCUAAUGGAUCGUGGUGGUCCCGGUGGAAUGUUCAGAGGUGGCCGUGGUGGAGACAG | 0.601 |
| CAAGUCCUGUGCUACACAUCGUAUGUACCGAAUCGGGUUUUUUUGGGUGGGUGGGAAAGUAUUAUGUUACGCCGUUCGGAUCUGCACUUC | 0.337 |
| UCCUGUGCUACACAUCGUAUGUACCGAAUCGGGGCCCCCCGGGCCCCCCGGGCCCCCCGGAAAGUAUUAUGUUACGCCGUUCGGAUCUGC | -0.16 |
| AGUCCUGUGCUACACAUCGUAUGUACCGAAUCGGUUUGGUUUUUUUGGUUUUUUUGGAAAGUAUUAUGUUACGCCGUUCGGAUCUGCACU | -1.31 |
| GUCCUGUGCUACACAUCGUAUGUACCGAAUCGGGGAAAAAGGGGAAAAAGGAAAAAGGAAAGUAUUAUGUUACGCCGUUCGGAUCUGCAC | -0.403 |

Mixed results
P1: PafA, mature enzyme, eGFP fusion (Elizabethkingia meningoseptica, UniProt Q9KJX5); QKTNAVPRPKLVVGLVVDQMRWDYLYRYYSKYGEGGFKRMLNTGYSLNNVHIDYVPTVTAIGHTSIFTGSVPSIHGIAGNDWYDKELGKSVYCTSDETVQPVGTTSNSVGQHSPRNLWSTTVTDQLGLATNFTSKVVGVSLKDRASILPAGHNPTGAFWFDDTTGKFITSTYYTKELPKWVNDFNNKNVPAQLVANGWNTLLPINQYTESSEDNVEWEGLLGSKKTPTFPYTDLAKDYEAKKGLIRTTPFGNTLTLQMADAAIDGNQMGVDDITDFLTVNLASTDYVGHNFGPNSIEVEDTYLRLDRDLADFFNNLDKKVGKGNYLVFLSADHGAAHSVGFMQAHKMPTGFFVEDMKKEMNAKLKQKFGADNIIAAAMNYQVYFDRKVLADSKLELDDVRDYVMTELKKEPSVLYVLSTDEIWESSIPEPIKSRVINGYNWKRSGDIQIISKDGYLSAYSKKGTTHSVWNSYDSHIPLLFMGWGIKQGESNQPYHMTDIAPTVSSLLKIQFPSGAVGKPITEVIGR
| Molecule | target | assay | system | conditions | how to read | measurement | value |
| --- | --- | --- | --- | --- | --- | --- | --- |
| P1 H75G | tungstate, free oxyanion | microfluidic competitive inhibition | in vitro, cell-free expressed | not given, derived from inhibition constants, unchanged parent 2230 nM | lower = stronger binding | oxyanion analog dissociation constant | 2230 nM |
| QEHQYYRPKYLIEIY | UDP-N-acetylglucosamine--peptide N-acetylglucosaminyltransferase 110 kDa subunit (OGT, Homo sapiens, UniProt O15294) | binding, phage display NGS | peptide | concentration not given, panning round 2 | baseline: input library | enrichment fold change | 4.9 |
